Results gathered from unrelated publications.
Parts stem from different laboratories: compare values within a part only.
UniProt Q15349, sequence (whole entry, looked up): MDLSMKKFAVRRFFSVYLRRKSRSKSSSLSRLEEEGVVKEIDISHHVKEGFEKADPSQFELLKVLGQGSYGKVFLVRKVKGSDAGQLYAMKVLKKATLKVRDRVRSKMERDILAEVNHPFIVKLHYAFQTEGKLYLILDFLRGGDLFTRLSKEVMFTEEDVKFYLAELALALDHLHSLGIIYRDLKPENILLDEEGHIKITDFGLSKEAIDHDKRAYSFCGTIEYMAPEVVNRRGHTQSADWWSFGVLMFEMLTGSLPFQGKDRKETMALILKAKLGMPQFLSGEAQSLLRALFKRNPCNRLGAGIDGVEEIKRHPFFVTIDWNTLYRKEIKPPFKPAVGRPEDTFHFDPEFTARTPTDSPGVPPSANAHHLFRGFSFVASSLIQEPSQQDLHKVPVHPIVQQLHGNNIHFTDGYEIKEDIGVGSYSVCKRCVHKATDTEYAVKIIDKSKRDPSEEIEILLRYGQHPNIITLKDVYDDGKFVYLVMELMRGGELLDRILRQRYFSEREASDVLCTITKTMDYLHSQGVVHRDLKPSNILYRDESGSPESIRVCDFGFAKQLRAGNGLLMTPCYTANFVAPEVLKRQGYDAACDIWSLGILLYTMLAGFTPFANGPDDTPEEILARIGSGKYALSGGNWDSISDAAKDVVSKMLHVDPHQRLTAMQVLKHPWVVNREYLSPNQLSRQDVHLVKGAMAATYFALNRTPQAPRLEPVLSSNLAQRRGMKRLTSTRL
UniProt Q9HC98, sequence (whole entry, looked up): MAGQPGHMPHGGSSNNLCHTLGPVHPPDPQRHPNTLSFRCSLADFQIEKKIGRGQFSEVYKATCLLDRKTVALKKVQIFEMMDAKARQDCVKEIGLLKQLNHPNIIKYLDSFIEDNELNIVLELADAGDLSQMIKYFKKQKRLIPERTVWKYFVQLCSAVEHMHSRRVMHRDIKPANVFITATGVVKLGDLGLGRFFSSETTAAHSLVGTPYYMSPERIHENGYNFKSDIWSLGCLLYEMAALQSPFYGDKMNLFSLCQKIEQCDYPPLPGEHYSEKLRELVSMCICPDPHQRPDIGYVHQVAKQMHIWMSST
UniProt Q96GD4, sequence (whole entry, looked up): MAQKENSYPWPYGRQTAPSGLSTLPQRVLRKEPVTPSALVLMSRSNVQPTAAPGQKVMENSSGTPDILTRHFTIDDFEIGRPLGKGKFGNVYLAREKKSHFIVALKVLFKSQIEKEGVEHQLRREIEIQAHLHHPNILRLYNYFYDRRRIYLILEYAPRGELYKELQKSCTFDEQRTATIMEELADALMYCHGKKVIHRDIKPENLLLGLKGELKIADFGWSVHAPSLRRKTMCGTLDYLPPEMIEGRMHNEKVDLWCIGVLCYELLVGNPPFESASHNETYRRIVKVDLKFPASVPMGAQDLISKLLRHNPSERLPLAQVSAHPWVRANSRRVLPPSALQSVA
UniProt Q9NY57, sequence (whole entry, looked up): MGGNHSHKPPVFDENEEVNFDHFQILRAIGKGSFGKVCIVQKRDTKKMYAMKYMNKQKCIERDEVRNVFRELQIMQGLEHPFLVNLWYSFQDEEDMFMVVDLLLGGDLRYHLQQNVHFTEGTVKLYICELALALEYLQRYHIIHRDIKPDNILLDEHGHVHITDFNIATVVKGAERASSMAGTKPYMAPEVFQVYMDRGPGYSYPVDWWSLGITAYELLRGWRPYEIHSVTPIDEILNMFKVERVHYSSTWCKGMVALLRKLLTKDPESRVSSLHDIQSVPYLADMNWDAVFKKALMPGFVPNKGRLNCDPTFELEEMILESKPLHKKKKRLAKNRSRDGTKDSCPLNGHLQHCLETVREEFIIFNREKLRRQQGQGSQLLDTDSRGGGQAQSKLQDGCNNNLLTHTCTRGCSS
UniProt P51451, sequence (whole entry, looked up): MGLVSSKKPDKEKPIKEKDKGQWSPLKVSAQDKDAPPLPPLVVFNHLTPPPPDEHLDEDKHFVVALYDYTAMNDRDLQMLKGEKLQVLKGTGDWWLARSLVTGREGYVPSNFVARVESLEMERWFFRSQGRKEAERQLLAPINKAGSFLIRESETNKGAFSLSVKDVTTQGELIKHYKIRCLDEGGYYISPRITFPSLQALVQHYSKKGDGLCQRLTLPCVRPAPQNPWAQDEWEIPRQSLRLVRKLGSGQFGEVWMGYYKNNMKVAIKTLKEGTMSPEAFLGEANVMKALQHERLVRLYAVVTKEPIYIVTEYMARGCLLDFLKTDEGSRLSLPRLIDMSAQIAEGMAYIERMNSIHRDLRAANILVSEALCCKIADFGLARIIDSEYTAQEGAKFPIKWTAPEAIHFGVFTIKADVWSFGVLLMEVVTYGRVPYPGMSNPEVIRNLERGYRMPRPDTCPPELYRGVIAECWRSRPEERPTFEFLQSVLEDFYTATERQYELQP

Series 1 — concentration: 1 µM
Structure (SMILES): CN1CCN(C(=O)c2ccc(NC(=O)Nc3ccc(N(C)c4ccnc(Nc5ccc(CS(C)(=O)=O)cc5)n4)cc3)cc2)CC1
For CDK4 (Homo sapiens, UniProt P11802); competitive binding panel; reference: vehicle: remaining binding read 83%.
The remaining binding was 87% (PRKAA2 (Homo sapiens, UniProt P54646); competitive binding; AMPK-alpha2).
For SRPK3 (Homo sapiens, UniProt Q9UPE1); competitive binding panel; reference: vehicle: remaining binding read 7.7%.
The remaining binding was 66% (NEK3 (Homo sapiens, UniProt P51956); competitive binding panel; reference: vehicle).
CDK11B (Homo sapiens, UniProt P21127); competitive binding panel, measured: CDC2L1; reference: vehicle — remaining binding: 67%.
PIK3CG (Homo sapiens, UniProt P48736); competitive binding panel; reference: vehicle — remaining binding: 93%.
For BLK (Homo sapiens, UniProt P51451); competitive binding panel; reference: vehicle: remaining binding read 87%.
The remaining binding was 71% (LYN (Homo sapiens, UniProt P07948); competitive binding panel; reference: vehicle).
GAK (Homo sapiens, UniProt O14976); competitive binding panel; reference: vehicle — remaining binding: 18%.
For NEK6 (Homo sapiens, UniProt Q9HC98); competitive binding panel; reference: vehicle: remaining binding read 100%.
It gave 96% for remaining binding (YES1 (Homo sapiens, UniProt P07947); competitive binding; YES).

Series 2 — effect on: enzyme activity; action: inhibitor; concentration: 77 µM
Target: DNA polymerase theta, ATPase domain (POLQ, Homo sapiens, UniProt O75417)
UniProt O75417, sequence (whole entry, unmodified, looked up): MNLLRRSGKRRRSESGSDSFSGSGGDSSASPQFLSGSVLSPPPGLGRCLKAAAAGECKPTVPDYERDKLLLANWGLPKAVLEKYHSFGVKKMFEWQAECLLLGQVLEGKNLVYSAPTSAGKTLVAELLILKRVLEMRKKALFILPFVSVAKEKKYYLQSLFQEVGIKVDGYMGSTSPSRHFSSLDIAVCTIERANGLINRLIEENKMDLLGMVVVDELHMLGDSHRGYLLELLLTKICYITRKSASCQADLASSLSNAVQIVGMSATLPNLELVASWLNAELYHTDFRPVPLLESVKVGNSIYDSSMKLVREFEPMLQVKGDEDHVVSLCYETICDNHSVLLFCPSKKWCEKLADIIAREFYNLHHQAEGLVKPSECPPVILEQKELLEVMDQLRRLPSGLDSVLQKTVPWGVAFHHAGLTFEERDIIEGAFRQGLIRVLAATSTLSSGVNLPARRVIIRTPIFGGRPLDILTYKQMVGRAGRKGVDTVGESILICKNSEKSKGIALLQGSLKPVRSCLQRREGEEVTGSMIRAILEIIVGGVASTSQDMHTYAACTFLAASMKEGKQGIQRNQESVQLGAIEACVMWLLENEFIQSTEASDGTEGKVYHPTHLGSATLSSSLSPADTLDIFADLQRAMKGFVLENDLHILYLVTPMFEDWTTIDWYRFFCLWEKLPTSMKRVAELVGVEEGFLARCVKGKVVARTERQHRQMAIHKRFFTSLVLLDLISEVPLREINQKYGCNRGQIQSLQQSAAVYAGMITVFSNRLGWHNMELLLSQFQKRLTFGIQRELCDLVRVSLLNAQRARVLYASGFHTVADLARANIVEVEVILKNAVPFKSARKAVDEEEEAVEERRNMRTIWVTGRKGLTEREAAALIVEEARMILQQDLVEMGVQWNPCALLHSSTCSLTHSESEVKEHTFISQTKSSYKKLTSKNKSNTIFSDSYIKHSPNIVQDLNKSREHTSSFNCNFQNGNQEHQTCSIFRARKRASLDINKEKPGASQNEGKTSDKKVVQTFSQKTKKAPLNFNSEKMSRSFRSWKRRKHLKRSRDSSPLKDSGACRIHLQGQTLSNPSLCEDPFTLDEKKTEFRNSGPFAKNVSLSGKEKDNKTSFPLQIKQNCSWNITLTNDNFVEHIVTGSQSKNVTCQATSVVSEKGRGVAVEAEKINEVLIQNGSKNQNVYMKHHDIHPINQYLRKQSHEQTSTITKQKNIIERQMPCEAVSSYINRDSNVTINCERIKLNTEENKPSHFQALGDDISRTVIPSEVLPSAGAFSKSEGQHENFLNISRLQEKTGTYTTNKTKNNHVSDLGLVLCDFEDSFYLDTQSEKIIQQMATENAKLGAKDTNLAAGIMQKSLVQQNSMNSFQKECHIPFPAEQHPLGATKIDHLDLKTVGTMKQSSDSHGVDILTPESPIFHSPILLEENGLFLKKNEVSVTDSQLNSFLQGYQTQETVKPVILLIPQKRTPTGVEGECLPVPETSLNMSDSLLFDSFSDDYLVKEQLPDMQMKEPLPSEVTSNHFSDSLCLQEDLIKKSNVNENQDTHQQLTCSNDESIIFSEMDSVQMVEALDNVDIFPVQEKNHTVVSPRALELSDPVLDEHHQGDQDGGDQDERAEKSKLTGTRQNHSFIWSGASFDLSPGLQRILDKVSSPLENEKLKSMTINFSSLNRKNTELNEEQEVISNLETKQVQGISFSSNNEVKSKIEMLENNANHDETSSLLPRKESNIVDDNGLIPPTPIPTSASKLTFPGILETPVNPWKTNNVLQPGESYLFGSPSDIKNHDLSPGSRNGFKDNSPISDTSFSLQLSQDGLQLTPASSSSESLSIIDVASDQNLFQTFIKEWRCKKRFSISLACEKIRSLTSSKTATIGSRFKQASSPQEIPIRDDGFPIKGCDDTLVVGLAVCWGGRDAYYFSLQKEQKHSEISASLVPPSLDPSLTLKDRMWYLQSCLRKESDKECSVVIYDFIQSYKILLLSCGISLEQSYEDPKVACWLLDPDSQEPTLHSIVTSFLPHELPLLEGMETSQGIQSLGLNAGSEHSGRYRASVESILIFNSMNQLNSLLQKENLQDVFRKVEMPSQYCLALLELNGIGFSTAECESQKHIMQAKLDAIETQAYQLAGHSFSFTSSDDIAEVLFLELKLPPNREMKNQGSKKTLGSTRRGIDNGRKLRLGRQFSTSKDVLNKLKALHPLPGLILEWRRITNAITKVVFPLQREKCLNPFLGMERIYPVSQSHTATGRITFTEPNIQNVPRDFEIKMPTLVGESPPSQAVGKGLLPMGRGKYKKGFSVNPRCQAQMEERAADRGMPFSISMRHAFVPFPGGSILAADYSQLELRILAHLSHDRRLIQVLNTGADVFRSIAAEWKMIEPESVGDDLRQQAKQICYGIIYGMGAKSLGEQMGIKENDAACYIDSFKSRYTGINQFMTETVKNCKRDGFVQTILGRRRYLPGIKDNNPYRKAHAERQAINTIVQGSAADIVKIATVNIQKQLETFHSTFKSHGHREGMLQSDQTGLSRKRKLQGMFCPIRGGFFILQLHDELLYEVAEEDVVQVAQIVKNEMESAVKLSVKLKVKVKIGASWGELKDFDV
For `NCC(=O)Nc1ccc(-n2nc(C(F)(F)F)cc2-c2ccc3c(ccc4ccccc43)c2)cc1`, the remaining activity was 92.6%.
For `COc1ccc(CCN2CCC(Nc3nc4ccccc4n3Cc3ccc(F)cc3)CC2)cc1`, the remaining activity was 98.6%.
`CC(C)(C)NCC(O)c1ccc(O)c(CO)c1` (centres unmarked) has a remaining activity of 99.8%.
For `CN1CC[C@]23c4ccccc4N[C@H]1[C@]21CCN(C)[C@H]3Nc2ccccc21`, the remaining activity was 102%.
For `CCCC(CCC)C(=O)O[C@H]1C[C@H]2CC[C@@H](C1)[N+]2(C)C`, the remaining activity was 105%.
With `COC(=O)C1=C(C)NC(C)=C(C(=O)OCCN(C)Cc2ccccc2)C1c1cccc([N+](=O)[O-])c1` (centres unmarked) the remaining activity was 100%.
For `CC/C(=C(/CC)c1ccc(O)cc1)c1ccc(O)cc1`, the remaining activity was 101%.
`C[N+](C)(C)CCCCCC[N+](C)(C)C` gave a remaining activity of 101%.
The remaining activity of `CN(C)C(=N)NC(=N)N` is reported as 92.6%.
`COc1ccc(-c2nc3cc(C4=NNC(=O)CC4C)ccc3[nH]2)cc1` (centres unmarked) gave a remaining activity of 98.2%.

Series 3 — effect on: cell-free assay; technique: competition with immobilised ligand; concentration: 0.1 µM
SMILES: CS(=O)(=O)N1CCCC(NC(=O)[C@H](CCC2CCCCC2)NC(=O)c2ccc(CNc3ncnc4c3nnn4-c3ccccc3)cc2)C1 (some centres unmarked)
For EIF2AK2 (Homo sapiens, UniProt P19525): remaining binding read 55%.
It gave 100% for remaining binding (PIP4K2C (Homo sapiens, UniProt Q8TBX8)).
It gave 100% for remaining binding (Aurora kinase A (AURKA, Homo sapiens, UniProt O14965)).
The remaining binding was 100% (Aurora kinase B (AURKB, Homo sapiens, UniProt Q96GD4)).
RET (Homo sapiens, UniProt P07949, V804M) — remaining binding: 82%.
For MAP4K4 (Homo sapiens, UniProt O95819): remaining binding read 66%.
The remaining binding was 100% (Ribosomal protein S6 kinase alpha-2, C-terminal kinase domain (RPS6KA2, Homo sapiens, UniProt Q15349)).
MET (Homo sapiens, UniProt P08581, Y1235D) — remaining binding: 98%.
For INSRR (Homo sapiens, UniProt P14616): remaining binding read 100%.
It gave 94% for remaining binding (SRC (Homo sapiens, UniProt P12931)).
The remaining binding was 100% (eIF-2-alpha kinase GCN2, C-terminal kinase domain (EIF2AK4, Homo sapiens, UniProt Q9P2K8, S808G)).
The remaining binding was 65% (STK32B (Homo sapiens, UniProt Q9NY57)).

Series 4 — effect on: enzyme activity; action: inhibitor; concentration: 0.5 µM; reference: control
Target: Mitogen-activated protein kinase 13 (MAPK13, Homo sapiens, UniProt O15264)
Target sequence (O15264 1-365): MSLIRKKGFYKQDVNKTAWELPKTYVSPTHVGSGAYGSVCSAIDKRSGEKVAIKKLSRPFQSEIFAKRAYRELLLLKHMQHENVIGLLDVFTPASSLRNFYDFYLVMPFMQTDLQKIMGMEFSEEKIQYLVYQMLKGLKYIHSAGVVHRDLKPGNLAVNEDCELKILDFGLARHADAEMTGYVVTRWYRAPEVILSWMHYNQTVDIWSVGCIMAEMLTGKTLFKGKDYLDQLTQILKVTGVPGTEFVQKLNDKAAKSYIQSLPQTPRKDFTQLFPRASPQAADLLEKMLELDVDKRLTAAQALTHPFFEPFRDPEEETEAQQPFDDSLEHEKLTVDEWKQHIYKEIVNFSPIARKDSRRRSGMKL
The remaining activity of `Cc1cc2ncc(-c3ccccc3)nc2cc1C` is reported as 107%.
The remaining activity of `Cc1cn(-c2cc(NC(=O)c3ccc(C)c(Nc4nccc(-c5cccnc5)n4)c3)cc(C(F)(F)F)c2)cn1` is reported as 90.7%.
The remaining activity of `Nc1cccc(-c2cc3c(Oc4cccc(O)c4)ncnc3[nH]2)c1` is reported as 104%.
`COc1cc2ncnc(Nc3ccc(O)c(Br)c3)c2cc1OC` has a remaining activity of 102%.
`CN(C)C[C@H]1CCn2c(c(C3=C(c4cn(C)c5ccccc45)C(=O)NC3=O)c3ccccc32)C1` gave a remaining activity of 117%.
`O=C(NC(NC(=S)Nc1ccc(F)c([N+](=O)[O-])c1)C(Cl)(Cl)Cl)C(c1ccccc1)c1ccccc1` (centres unmarked) has a remaining activity of 107%.
With `N#C/C(=C\c1ccc(O)c(O)c1)C(=O)NCc1ccccc1` the remaining activity was 101%.
With `O=C(Nc1cccc(Nc2nccc(Nc3cccc(C(F)(F)F)c3)n2)c1)C1CC1` the remaining activity was 99.6%.
The remaining activity of `N#Cc1c(NC(=O)c2cccc3ccccc23)sc2c1CCCC2` is reported as 109%.
With `c1ccc(-c2cnc(Nc3ccc(OCCN4CCCC4)cc3)s2)cc1` the remaining activity was 104%.
`Ic1cccc(CSc2nnc(-c3ccncc3)o2)c1` gave a remaining activity of 93.8%.
`COc1cc2c(cc1OC)-c1[nH]nc(Nc3cccc(F)c3)c1C2` gave a remaining activity of 99.7%.
`O=C1C(Cl)=C(N2C(=O)CCC2=O)C(=O)c2ccccc21` has a remaining activity of 106%.
With `c1ccc(-c2[nH]ncc2-c2ccnc3ccccc23)nc1` the remaining activity was 110%.
With `Cc1nc2cc3nc(-c4cccs4)cnc3cc2n1C` the remaining activity was 99.7%.
With `CCOc1nc(NC(=O)Cc2cc(OC)ccc2OC)cc(N)c1C#N` the remaining activity was 106%.
`O=C1c2ccccc2-c2n[nH]c3cccc1c23` gave a remaining activity of 99.4%.
For `CCN(CC)CCNC(=O)c1c(C)[nH]c(/C=C2\C(=O)Nc3ccc(Cl)cc32)c1C`, the remaining activity was 104%.
`O=c1cc(-c2cccc3c2Sc2ccccc2S3)oc(N2CCOCC2)c1` has a remaining activity of 101%.
`CCN(CC)C(=O)c1ccc(Nc2nc(OCC3CCCCC3)c3[nH]cnc3n2)cc1` has a remaining activity of 95.3%.
`Cn1nc2c3c(cccc31)C(=O)c1ccccc1-2` has a remaining activity of 106%.
`CCN(CC)CCNC(=O)c1c(C)[nH]c(/C=C2\C(=O)Nc3ccc(F)cc32)c1C` gave a remaining activity of 92.4%.
For `COc1cc2ncnc(Nc3cccc(Cl)c3)c2cc1OC`, the remaining activity was 99.8%.
